Published values from different studies.
Every numbered part comes from another study and shows a few of its results, in no order. Substitutions count along the parent as printed.

Block 1
Target: ABI1, truncated, D143A, DHFR fusion (Arabidopsis thaliana)
Method: DHFR PCA, deep sequencing
Medium: yeast
Setting: methotrexate growth selection, single substitutions
Added: (+)-ABA 58 µM
Relative to: wild-type fitted maximum
Direction: higher = stronger binding
Starting sequence: PYL1, truncated, DHFR fusion (Arabidopsis thaliana); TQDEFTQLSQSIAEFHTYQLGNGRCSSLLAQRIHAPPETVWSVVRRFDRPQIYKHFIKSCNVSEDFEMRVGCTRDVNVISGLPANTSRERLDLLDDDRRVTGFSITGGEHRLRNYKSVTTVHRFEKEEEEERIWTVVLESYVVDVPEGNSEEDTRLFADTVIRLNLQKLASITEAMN; partner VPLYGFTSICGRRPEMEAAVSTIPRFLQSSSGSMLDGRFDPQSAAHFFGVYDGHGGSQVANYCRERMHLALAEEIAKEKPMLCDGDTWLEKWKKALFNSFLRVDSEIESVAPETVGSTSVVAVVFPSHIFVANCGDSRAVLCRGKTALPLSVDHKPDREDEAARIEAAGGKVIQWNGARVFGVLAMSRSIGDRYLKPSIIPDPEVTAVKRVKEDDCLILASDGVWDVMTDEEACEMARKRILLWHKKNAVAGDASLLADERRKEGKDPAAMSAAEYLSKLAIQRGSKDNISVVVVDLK
Substitution | relative binding score
D97K | 100%
T120Q | 24.1%
Q19W | 66.4%
C72S | 82.4%
H122Q | 29.7%
E109W | 32.2%
E14A | 65.1%
E130G | 91.7%
S117C | 37.9%
A35Y | -0.0627%
F103R | -11.5%
E38D | 91.4%
S59N | 74.4%
F15I | 45.7%
A30C | 90%

Block 2
Target: CCND2, cyclin fold, Cln2 fusion (human)
Method: yeast growth competition, sequencing
Medium: yeast
Setting: weak parent motif
Relative to: not given
Direction: higher = stronger binding
Starting sequence: SLBP docking peptide (human); ARYKRKLLINDFG; partner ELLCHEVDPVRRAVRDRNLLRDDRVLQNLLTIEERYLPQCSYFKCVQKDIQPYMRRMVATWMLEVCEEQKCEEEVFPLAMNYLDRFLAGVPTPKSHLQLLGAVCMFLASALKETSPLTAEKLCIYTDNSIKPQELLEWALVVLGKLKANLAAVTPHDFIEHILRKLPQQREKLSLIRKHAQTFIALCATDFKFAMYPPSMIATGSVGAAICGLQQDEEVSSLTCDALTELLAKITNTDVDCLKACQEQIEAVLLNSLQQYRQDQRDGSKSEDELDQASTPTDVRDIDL
Substitution | normalised enrichment score
G13L | -0.0973
F12R | 0.363
Y3M | 0.695
R5L | 0.258
R2W | 0.346
L7V | -0.134
F12S | -0.0221
K4V | 0.00516
N10Y | 0.24
D11I | 0.00711
N10E | 0.387

Block 3
Target: RNA binding protein fox-1 homolog 2, RRM domain, GST-SBP tag (RBFOX2, Homo sapiens, UniProt O43251-10, residues 100-194)
Method: RNA Bind-n-Seq
Molecule type: RNA
Medium: in vitro
Concentration: 365 nM
Setting: natural RNA segment, single round, ends assumed
Relative to: no-protein control
Direction: higher = stronger binding
All sequences stand within: GGGAGUUCUACAGUCCGACGAUC … UGGAAUUCUCGGGUGCCAA
Residues (chain): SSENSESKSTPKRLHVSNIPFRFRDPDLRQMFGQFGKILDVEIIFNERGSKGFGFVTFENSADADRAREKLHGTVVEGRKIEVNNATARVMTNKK
Strand | RBNS enrichment (R)
UGUUGUGUGUCCAGGGAAAUUCACAGCUCAGUAUGAGAAUACCUUGGUUAGUGCUCACCCACAAGCUUCCAGGAGCCAGCUGGGAGGAGACAAUAGGAAGAGAUGUCAUC | 0.218
GUGCUGGACAAAUUGACUUAAUUCUGUGCAGGCAAACACUUUGAAUCAUAAGGAUUUUUAUUGCCGCUCCAUUCUUACUACUAUUCAUGAUUCAAACAUCUACCCCUGUU | 0.83
ACCAGCAUCCUGCCGCCCAAAGCCGCCUCUUCUCAGUUGCCAAACGAGGGGCCUGCCCCCCGCCCUACCGGCUUUUGGAUUCUGGGAGGGGAACUCUGCCUCCCUGCAAA | 0.451
UCAUCGAAUGGAAACAUGUUCUUGCAUGUGGAUGUGUGUUUCCCAGGCAGAGGGUCCUGCGCCCCCCAGCACUCCCCUGCCCUCUCCCACACCUCAGGUCCAGCGCACAC | 15
AAGUGAGGGUAGAACCUUUUGGGACUGGCCUUUGAAGCUCUGGCCAGGGAUGGGGUGGGGGCCAAAAGGACAGAGCCUGGUAUGUCUUCAUAGUCAUUGAGAAUGUGGAG | 0.899
AGUGUACAGGACAGCUAGGGUAAAGGACAGCUAGUGUACAGGGCUCCAGGAGACUUGGGGAUUUGUGUUUAGCUAUGUGUGGGAAUUUGCAAAUGCUUUGUGCUUUGACU | 1.61
GGCCUCGCCUGGAGCCUGAACGGAGCCCUCCUCUCCCACAGGCCCAAGAUAUAACCCACCAGUGCCUUUUGUCUUCCUGUCAGCUCUGUCAAUCACGCCUGUCCUCUCAC | 1.01
UAAUCCCAAAUGUGAUAGUAGCUUCAGUAUGUUUCCUCACCCAAAAACCAUUUGGCUGGCAGAAAUUAUCUAGAAAAAUUAUUAUUUUGCAGUUAUCUGAGACACCAAAC | 0.401

Further values, each from its own experiment
Substance | target | test | test system | setting | how to read | endpoint | result
PhoQ, residues 284 288 289 292 302 303 SLANIV | PhoP, residues 12 14 15 18 19 GQALL (Escherichia coli, UniProt P23836) | Sort-seq, refers to: YFP reporter | E. coli | PhoQ-PhoP variant library, added: 10 µM Mg2+ | relative to: high Mg2+ state, higher = stronger signaling | fold induction | 13.8

Excerpt of the above (block 2):
Substitution | normalised enrichment score
G13L | -0.0973
F12R | 0.363
Y3M | 0.695
